Measured values from different studies.
Each line is one published result; not all experiments were run side by side.
PPARA ligand-binding domain: Peroxisome proliferator-activated receptor alpha, ligand-binding domain (PPARA, Homo sapiens, UniProt Q07869)
Sequence of UniProt Q07869 (whole entry, looked up): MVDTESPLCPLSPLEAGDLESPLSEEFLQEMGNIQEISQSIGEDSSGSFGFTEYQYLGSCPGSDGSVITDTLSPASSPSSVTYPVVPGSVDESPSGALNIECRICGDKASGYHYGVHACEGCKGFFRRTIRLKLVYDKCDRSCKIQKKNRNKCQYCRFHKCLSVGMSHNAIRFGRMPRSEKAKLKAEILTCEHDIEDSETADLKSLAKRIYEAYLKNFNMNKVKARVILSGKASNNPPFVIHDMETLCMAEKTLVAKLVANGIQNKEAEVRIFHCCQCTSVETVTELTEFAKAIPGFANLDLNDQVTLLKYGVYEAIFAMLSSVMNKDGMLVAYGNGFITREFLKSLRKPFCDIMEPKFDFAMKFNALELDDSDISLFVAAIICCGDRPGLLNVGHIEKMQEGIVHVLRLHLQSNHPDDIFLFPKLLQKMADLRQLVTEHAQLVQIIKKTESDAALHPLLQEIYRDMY
GBA2: Beta-glucosidase (GBA2, Homo sapiens, UniProt Q9HCG7)
Sequence of UniProt Q9HCG7 (whole entry, looked up): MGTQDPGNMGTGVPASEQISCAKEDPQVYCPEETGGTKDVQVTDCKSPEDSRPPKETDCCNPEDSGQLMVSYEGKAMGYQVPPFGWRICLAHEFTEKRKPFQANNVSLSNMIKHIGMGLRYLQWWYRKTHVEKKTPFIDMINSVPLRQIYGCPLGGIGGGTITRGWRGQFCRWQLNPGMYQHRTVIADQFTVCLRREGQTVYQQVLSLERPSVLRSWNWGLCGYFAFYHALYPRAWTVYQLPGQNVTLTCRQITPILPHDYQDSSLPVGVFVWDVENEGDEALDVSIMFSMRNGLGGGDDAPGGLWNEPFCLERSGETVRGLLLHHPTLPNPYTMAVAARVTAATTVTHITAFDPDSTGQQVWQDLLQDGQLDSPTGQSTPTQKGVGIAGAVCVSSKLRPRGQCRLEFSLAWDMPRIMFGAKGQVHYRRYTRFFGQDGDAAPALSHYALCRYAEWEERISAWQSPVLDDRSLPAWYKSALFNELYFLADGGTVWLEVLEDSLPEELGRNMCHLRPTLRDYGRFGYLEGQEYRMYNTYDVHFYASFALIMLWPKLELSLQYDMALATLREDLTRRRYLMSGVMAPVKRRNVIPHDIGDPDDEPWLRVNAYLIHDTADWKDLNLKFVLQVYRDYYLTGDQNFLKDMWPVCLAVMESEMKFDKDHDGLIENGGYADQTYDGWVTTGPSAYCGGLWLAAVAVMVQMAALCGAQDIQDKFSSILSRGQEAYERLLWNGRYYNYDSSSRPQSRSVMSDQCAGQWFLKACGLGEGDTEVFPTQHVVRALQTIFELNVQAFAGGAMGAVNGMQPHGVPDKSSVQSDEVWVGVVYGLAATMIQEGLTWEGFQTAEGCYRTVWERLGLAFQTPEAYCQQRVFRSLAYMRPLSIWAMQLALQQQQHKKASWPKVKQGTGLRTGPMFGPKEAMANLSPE
Chymotrypsinogen A: Chymotrypsinogen A (Bos taurus, UniProt P00766)
MAPK14: Mitogen-activated protein kinase 14 (MAPK14, Homo sapiens, UniProt Q16539)
Sequence of UniProt P10997 (whole entry, looked up): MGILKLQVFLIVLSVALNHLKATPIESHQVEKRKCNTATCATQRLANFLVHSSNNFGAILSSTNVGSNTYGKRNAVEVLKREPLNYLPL
Sequence of UniProt P09917 (whole entry, looked up): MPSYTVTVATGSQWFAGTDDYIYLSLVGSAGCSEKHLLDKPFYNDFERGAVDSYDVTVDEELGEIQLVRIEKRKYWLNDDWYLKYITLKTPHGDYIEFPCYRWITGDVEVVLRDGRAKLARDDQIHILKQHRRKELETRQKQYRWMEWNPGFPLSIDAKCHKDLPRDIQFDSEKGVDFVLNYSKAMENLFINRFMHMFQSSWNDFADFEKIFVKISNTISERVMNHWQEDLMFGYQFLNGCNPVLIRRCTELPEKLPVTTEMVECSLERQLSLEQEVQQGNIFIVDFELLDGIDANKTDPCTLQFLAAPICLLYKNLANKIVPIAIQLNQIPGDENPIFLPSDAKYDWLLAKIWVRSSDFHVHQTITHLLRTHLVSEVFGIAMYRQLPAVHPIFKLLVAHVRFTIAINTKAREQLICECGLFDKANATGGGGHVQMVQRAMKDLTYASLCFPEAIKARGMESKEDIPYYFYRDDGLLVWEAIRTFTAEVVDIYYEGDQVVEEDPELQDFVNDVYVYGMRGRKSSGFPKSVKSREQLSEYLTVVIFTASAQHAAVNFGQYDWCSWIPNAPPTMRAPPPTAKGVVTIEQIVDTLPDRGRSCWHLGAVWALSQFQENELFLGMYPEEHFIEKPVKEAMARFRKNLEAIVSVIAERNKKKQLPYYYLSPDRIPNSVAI
Sequence of UniProt Q92769 (whole entry, looked up): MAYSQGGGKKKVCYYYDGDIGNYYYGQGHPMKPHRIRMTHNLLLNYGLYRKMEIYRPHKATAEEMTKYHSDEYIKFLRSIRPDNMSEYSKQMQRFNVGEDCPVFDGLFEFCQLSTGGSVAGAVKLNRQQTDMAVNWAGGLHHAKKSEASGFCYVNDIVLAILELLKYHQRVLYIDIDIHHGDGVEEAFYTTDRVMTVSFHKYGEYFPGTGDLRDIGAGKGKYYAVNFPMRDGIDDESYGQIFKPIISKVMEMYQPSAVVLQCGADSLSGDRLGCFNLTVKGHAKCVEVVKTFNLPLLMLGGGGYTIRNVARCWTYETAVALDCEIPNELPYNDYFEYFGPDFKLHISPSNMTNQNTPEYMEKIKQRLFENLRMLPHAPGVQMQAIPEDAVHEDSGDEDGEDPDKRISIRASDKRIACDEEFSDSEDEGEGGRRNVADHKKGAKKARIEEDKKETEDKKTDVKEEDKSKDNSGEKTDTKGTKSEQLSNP
Sequence of UniProt Q56UN5 (whole entry, looked up): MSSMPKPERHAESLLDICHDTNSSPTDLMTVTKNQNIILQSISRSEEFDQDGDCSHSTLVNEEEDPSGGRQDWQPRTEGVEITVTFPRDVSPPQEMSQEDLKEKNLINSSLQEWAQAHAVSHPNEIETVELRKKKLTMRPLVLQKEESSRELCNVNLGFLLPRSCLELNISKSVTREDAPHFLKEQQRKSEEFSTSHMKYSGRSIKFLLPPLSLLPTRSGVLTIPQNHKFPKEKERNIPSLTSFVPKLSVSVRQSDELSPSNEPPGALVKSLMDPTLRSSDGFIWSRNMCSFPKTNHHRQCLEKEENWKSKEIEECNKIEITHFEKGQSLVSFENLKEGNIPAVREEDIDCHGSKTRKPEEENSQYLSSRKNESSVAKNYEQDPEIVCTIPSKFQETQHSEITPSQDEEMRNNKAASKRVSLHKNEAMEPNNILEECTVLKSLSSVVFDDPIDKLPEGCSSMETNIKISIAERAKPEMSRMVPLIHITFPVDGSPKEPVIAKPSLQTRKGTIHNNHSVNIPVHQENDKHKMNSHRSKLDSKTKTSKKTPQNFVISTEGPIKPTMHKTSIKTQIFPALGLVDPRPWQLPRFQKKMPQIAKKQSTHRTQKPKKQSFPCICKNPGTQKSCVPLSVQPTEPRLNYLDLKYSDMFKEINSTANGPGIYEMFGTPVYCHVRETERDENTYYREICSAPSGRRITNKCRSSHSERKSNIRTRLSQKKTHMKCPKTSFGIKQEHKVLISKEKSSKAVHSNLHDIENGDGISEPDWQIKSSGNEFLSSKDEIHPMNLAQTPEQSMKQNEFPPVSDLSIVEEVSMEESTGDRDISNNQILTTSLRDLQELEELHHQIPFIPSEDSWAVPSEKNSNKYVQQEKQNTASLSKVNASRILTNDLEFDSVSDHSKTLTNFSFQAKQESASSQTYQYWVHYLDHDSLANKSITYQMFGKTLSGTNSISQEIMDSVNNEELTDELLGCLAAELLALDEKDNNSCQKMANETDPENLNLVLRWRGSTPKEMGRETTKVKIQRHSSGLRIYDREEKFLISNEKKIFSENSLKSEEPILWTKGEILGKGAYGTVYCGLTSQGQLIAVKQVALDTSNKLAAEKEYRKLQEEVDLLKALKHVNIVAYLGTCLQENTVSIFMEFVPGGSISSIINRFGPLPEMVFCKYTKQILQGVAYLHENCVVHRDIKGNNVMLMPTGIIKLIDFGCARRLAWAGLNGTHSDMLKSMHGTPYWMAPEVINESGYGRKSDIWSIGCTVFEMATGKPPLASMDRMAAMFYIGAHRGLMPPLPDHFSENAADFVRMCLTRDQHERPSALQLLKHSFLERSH
Sequence of UniProt Q8IXJ6 (whole entry, looked up): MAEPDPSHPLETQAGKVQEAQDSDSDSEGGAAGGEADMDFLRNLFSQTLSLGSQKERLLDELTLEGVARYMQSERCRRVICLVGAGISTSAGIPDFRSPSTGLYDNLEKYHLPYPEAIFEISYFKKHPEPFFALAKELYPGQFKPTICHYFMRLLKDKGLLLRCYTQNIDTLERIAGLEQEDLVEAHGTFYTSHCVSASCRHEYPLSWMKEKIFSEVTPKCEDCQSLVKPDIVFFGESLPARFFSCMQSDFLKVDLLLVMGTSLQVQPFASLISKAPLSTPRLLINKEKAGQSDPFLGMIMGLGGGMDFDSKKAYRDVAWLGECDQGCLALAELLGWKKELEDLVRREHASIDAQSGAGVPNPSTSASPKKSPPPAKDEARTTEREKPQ

| Compound | target or system | assay | system | conditions | scale | endpoint | result |
| --- | --- | --- | --- | --- | --- | --- | --- |
| Cc1c(Cc2ccc(OC(C)(C)C(=O)O)cc2)c2ccc(C(=O)N[C@@H](C)c3ccc(C(C)(C)C)cc3)cc2n1C | PPARA ligand-binding domain | reporter gene, luciferase reporter | HEK293T, Gal4-PPARα LBD |  |  | IC50 | 2.69 µM |
| Cc1cc(-c2ccc(S(=O)(=O)C3CC(C(=O)NC4(C#N)CC4)N(C(=O)C4(C(F)(F)F)CC4)C3)c(C(F)(F)F)c2)ccn1 (stereo not shown) | Cathepsin B (CTSB, Homo sapiens, UniProt P07858) | enzyme activity, inhibitor |  |  |  | IC50 | > 10 µM |
| CN(C)c1ccc(/N=N/c2cccc(C(=O)OCCCCN)c2)cc1 | Islet amyloid polypeptide (IAPP, Homo sapiens, UniProt P10997) | ThT displacement, ThT fluorescence |  | pH 7.4, preformed target-ThT complex, added: 5 µM ThT |  | IC50 | 0.53 µM |
| OC[C@@H]1[C@@H](O)[C@H](O)[C@@H](O)CN1CCCCCOCc1ccsc1 | GBA2 | inhibitor, 4MU-β-D-glucopyranoside | HEK293T homogenates overexpressing GBA2 |  |  | IC50 | 0.004 µM |
| Cc1c(Cc2cccc(OC(C)C(=O)O)c2)c2ccc(C(=O)NC(C)c3ccc(C(C)C)cc3)cc2n1C (mixture of isomers) | PPARA ligand-binding domain | reporter gene, luciferase reporter | HEK293T, Gal4-PPARα LBD |  |  | IC50 | 9.32 µM |
| O=C1C[C@H](c2ccc(O)cc2)Oc2cc(O)ccc21 | Polyunsaturated fatty acid 5-lipoxygenase (ALOX5, Homo sapiens, UniProt P09917) | enzyme activity, inhibitor |  |  |  | IC50 | > 10 µM |
| O=C1NC(=O)C(N2CCc3cc(Cl)ccc32)=C1c1cccc(Cl)c1 | Sensor histidine kinase AirS (Staphylococcus aureus, UniProt Q2FX96) | autophosphorylation, inhibitor, BODIPY-FL-ATPγS in-gel fluorescence |  | lower bound of confidence interval |  | IC50 | > 1000 µM |
| CCCCCCCCCCCCCC(=S)NCCCC[C@H](NS(C)(=O)=O)C(=O)N[C@H](C)C(=O)N[C@@H](CCCNC(=N)N)C(N)=O | NAD-dependent protein deacetylase sirtuin-2 (SIRT2, Homo sapiens, UniProt Q8IXJ6) | enzyme activity, inhibitor |  |  |  | IC50 | 0.09 µM |
| COC1CN([C@H]2CC[C@H]([C@@]3(C)Oc4c(Cl)cc(C(=O)NCc5c(SC)cc(C)[nH]c5=O)c(C)c4O3)CC2)C1 |  | RNA-seq, measured: MPZL2 | human, whole blood | dose not given, 24 h | relative to: pretreatment baseline | log2 fold change | 1.68 |
| Cc1c(COc2cc(OCc3cccc(C#N)c3)c(CNCCO)cc2Cl)cccc1-c1cccc(OCCCCCCC(=O)NO)c1 | Histone deacetylase 2 (HDAC2, Homo sapiens, UniProt Q92769) | enzyme activity, inhibitor |  |  |  | IC50 | 0.0574 µM |
| O=C(NCC1CCOCC1)c1ccccc1NC(=O)C(C(F)(F)F)C(F)(F)F | Chymotrypsinogen A | enzyme activity, inhibitor, fluorescence |  |  |  | IC50 | 402 µM |
| OC[C@@H]1[C@@H](O)[C@H](O)[C@@H](O)CN1CCCCCOCc1ccc(-c2ccc(C(F)(F)F)cc2)cc1 | GBA2 | inhibitor, 4MU-β-D-glucopyranoside | HEK293T homogenates overexpressing GBA2 |  |  | IC50 | 0.001 µM |
| Cc1nn(-c2cccc(N)c2)c(=O)c2cnc(Nc3ccc(N4CCNCC4)cc3)nc12 | MAPK14 | SelectScreen kinase |  |  |  | IC50 | 0.757 µM |
| O=C(Nc1cccc(Cl)c1)C(C(F)(F)F)C(F)(F)F | Chymotrypsinogen A | enzyme activity, inhibitor, fluorescence |  |  |  | IC50 | 3.4 µM |
| CCCCCCOCCCCCN1C[C@H](O)[C@@H](O)[C@H](O)[C@@H]1CO | GBA2 | inhibitor, 4MU-β-D-glucopyranoside | HEK293T homogenates overexpressing GBA2 |  |  | IC50 | 0.025 µM |
| COc1c(Cl)cccc1Nc1c(-c2ccncc2C#C[C@@]2(C)CCCN2C(=O)/C=C/CN(C)C)[nH]c2c1C(=O)NCC2 | MAPK14 |  |  |  |  | IC50 | 0.18 µM |
| Cc1ccc(S(=O)(=O)N2CC(NC(=O)c3ccccc3F)C2=O)cc1 (stereo not shown) | Chymotrypsinogen A | enzyme activity, inhibitor, fluorescence |  |  |  | IC50 | 238 µM |
| CC(C)=CCC/C(C)=C/CC/C(C)=C/COCCCCCN1C[C@H](O)[C@@H](O)[C@H](O)[C@H]1CO | GBA2 | inhibitor, 4MU-β-D-glucopyranoside | HEK293T homogenates overexpressing GBA2 |  |  | IC50 | 0.004 µM |
| Nc1ncc2c(n1)-c1c([nH]c3ccc(C4=CCOCC4)cc13)CCC2 | Mitogen-activated protein kinase kinase kinase 19 (MAP3K19, Homo sapiens, UniProt Q56UN5) | enzyme activity, inhibitor, radiometric |  |  |  | IC50 | 0.6 µM |

Some of these lines once more:
| Compound | target or system | assay | system | conditions | scale | endpoint | result |
| --- | --- | --- | --- | --- | --- | --- | --- |
| Cc1c(Cc2cccc(OC(C)C(=O)O)c2)c2ccc(C(=O)NC(C)c3ccc(C(C)C)cc3)cc2n1C (mixture of isomers) | PPARA ligand-binding domain | reporter gene, luciferase reporter | HEK293T, Gal4-PPARα LBD |  |  | IC50 | 9.32 µM |
| O=C1C[C@H](c2ccc(O)cc2)Oc2cc(O)ccc21 | Polyunsaturated fatty acid 5-lipoxygenase (ALOX5, Homo sapiens, UniProt P09917) | enzyme activity, inhibitor |  |  |  | IC50 | > 10 µM |
| O=C1NC(=O)C(N2CCc3cc(Cl)ccc32)=C1c1cccc(Cl)c1 | Sensor histidine kinase AirS (Staphylococcus aureus, UniProt Q2FX96) | autophosphorylation, inhibitor, BODIPY-FL-ATPγS in-gel fluorescence |  | lower bound of confidence interval |  | IC50 | > 1000 µM |
